Assay results collected from several papers.
Every numbered part comes from another study and shows a few of its results, in no order. Several values in a cell are separate wells, animals, samples, runs or records.
UniProt P41595, sequence (whole entry, looked up): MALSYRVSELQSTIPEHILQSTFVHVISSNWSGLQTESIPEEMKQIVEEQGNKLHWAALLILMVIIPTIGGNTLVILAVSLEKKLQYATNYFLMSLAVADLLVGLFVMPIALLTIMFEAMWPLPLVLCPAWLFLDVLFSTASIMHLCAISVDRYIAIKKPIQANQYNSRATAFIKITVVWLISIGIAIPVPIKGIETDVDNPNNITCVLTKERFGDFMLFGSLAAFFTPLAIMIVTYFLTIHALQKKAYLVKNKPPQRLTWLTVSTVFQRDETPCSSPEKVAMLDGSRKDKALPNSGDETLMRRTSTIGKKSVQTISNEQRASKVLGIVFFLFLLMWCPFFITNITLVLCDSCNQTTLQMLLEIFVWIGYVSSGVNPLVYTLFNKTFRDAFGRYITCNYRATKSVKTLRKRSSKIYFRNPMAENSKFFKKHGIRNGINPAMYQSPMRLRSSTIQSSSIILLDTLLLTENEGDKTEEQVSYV
UniProt P47898, sequence (whole entry, looked up): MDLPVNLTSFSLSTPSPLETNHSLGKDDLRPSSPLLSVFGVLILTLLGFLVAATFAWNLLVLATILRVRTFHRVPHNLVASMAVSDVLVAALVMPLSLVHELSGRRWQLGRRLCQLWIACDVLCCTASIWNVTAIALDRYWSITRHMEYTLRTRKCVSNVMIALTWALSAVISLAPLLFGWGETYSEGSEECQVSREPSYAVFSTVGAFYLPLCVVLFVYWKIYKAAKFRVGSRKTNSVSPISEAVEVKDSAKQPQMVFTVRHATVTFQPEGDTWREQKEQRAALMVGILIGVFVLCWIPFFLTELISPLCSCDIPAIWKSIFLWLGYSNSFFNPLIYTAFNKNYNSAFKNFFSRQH
UniProt P28221, sequence (whole entry, looked up): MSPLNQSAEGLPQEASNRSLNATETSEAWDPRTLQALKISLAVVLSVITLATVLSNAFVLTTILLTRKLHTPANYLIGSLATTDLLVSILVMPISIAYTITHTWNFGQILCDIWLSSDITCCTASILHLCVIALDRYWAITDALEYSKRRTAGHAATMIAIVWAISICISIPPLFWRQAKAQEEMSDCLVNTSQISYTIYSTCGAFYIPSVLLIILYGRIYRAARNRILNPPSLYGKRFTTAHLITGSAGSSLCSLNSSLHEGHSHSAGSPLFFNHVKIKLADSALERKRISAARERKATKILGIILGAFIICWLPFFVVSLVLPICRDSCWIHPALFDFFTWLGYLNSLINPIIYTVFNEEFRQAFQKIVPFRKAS
UniProt P28566, sequence (whole entry, looked up): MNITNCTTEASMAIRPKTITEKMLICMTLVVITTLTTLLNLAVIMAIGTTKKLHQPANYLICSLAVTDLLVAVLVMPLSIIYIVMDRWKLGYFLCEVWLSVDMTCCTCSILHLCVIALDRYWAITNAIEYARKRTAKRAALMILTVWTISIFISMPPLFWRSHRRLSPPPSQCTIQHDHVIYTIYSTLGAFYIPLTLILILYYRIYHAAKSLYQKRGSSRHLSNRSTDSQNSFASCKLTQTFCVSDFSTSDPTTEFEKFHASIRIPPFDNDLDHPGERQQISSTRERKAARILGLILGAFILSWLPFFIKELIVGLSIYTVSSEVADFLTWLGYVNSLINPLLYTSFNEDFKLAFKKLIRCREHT
UniProt P46098, sequence (whole entry, looked up): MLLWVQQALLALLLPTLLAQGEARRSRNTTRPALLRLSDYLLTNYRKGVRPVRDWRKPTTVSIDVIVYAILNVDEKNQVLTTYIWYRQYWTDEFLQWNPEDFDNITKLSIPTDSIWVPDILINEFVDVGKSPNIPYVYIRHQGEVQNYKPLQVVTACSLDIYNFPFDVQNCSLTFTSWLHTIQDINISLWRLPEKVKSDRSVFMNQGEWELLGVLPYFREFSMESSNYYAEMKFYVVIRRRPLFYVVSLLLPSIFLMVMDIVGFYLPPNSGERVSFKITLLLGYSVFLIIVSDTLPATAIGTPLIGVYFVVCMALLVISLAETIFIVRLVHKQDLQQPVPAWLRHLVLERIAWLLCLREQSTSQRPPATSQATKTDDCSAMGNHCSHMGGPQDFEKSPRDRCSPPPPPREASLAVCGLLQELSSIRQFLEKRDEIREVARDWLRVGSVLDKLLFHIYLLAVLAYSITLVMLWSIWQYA

Series 1
SMILES: C=CCc1ccc(O)c(-c2ccc(O)c(CC=C)c2)c1
Observed: chloride current
Method: whole-cell voltage clamp
ANO1 del476-501: Anoctamin-1 (ANO1, Homo sapiens, UniProt Q5XXA6, del476-501)
UniProt Q5XXA6, sequence (whole entry, unmodified, looked up): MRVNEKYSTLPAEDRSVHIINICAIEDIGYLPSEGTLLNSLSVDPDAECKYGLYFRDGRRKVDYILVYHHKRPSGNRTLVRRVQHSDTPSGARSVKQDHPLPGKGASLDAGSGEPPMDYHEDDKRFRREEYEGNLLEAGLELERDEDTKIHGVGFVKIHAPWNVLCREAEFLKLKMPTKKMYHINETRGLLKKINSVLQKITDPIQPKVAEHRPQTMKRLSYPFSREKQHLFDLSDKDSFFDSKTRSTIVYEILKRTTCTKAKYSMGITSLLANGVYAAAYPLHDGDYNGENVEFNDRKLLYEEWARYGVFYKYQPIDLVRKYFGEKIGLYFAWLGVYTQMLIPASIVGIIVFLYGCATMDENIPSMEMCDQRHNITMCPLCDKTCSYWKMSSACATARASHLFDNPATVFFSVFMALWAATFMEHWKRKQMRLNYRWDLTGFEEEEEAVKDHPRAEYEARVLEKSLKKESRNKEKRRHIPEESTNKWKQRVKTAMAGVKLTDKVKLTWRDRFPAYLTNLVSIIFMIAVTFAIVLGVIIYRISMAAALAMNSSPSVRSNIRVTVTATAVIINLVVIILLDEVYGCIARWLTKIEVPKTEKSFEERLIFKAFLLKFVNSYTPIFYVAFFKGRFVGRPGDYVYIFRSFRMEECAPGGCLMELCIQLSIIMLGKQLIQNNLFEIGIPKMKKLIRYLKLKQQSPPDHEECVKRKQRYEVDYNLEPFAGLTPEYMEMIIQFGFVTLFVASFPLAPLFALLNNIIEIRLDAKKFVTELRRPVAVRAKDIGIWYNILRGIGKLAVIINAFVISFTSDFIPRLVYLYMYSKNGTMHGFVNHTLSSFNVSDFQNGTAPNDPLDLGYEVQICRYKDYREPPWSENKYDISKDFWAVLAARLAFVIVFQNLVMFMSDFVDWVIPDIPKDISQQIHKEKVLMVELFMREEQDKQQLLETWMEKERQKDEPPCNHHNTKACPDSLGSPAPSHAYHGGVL
| target | action | tested at | notes | added | IC50 [µM] |
| --- | --- | --- | --- | --- | --- |
| Anoctamin-1 (ANO1, Homo sapiens, UniProt Q5XXA6, del476-501/E650A) |  |  | membrane voltage -80 mV |  | 6.4 |
| Anoctamin-1 (ANO1, Homo sapiens, UniProt Q5XXA6, del476-501/F803I) | inhibitor | 20 mV holding voltage |  |  | 6.56 |
| Anoctamin-1 (ANO1, Homo sapiens, UniProt Q5XXA6, del476-501/R631D) | inhibitor |  | R605D mutant at -40 mV |  | 20 |
| ANO1 del476-501 | inhibitor |  | 40 mV voltage | 300 nM Ca2+ | 3.42 |
| ANO1 del476-501 |  |  | membrane voltage 100 mV | 300 nM Ca2+ | 6.37 |
| Anoctamin-1 (ANO1, Homo sapiens, UniProt Q5XXA6, del476-501/F646A) |  |  | membrane voltage -80 mV |  | 5.85 |
| Anoctamin-1 (ANO1, Homo sapiens, UniProt Q5XXA6, del476-501/R561A) |  |  | membrane voltage -100 mV |  | 8.1 |
| Anoctamin-1 (ANO1, Homo sapiens, UniProt Q5XXA6, del476-501/F627A) | inhibitor |  | mutant F601A at 100 mV | 300 nM Ca2+ | 7.55 |
| Anoctamin-1 (ANO1, Homo sapiens, UniProt Q5XXA6, del476-501/L548A) |  |  | membrane voltage -80 mV |  | 7.84 |

Series 2
Organism: Sarcocystis neurona
Observed: parasite growth
Tested at: 10 µM
Notes: second screen
Relative to: untreated
| Structure (SMILES) | log2 fold change |
| --- | --- |
| C[C@H]1C[C@H]2[C@@H]3CCC4=CC(=O)C=C[C@]4(C)[C@@]3(Cl)[C@@H](O)C[C@]2(C)[C@@]1(O)C(=O)CO | 0.00845 |
| CC(C)NCC(O)COc1cccc2ccccc12.Cl (stereo not drawn) | 0.34 |
| O=C1c2c(O)ccc(O)c2C(=O)c2c(NCCNCCO)ccc(NCCNCCO)c21 | -0.86 |
| Cc1cccc(CN2CCN(C(c3ccccc3)c3ccc(Cl)cc3)CC2)c1.Cl.Cl (stereo not drawn) | 0.61 |
| CN(CCO)CC(O)Cn1cnc2c1c(=O)n(C)c(=O)n2C.O=C(O)c1cccnc1 (stereo not drawn) | 0.38 |
| Nc1ncn([C@@H]2O[C@H](CO)[C@@H](O)[C@H]2O)c(=O)n1 | 0.47 |
| Cl.Nc1nc2ccc(OC(F)(F)F)cc2s1 | 2.15 |
| C[C@]12CC[C@@H]3c4ccc(O)cc4CC[C@H]3[C@@H]1CC[C@@H]2O | 0.78 |
| CN1CCc2cc(Cl)c(O)cc2[C@@H](c2ccccc2)C1.Cl | 0.64 |

Series 3
Compound: COc1nc2ccc([C@@](O)(c3ccccc3)C3CCN(C(C)=O)CC3)cc2c(Cl)c1Cc1ccc(-n2cccn2)cc1
Observed: binding
Method: radioligand binding
Tested at: 10 µM
| target | inhibition [%] |
| --- | --- |
| 5-hydroxytryptamine receptor 3A (HTR3A, Homo sapiens, UniProt P46098) | 9.28 |
| 5-hydroxytryptamine receptor 1E (HTR1E, Homo sapiens, UniProt P28566) | -18.7 |
| 5-hydroxytryptamine receptor 2B (HTR2B, Homo sapiens, UniProt P41595) | 18.7 |
| 5-hydroxytryptamine receptor 1D (HTR1D, Homo sapiens, UniProt P28221) | 5.9 |
| 5-hydroxytryptamine receptor 5A (HTR5A, Homo sapiens, UniProt P47898) | -0.46 |

Series 4
SMILES: CO[C@@H]1[C@@H](OC(N)=O)[C@@H](O)[C@H](Oc2ccc3c(O)c(NC(=O)c4ccc(O)c(CC=C(C)C)c4)c(=O)oc3c2C)OC1(C)C
Method: CellTiter-Glo
| cell line | tested at | time | relative to | viability |
| --- | --- | --- | --- | --- |
| MDA-MB-436 (BRCA1-mutant) | 25 µM | 6 days | untreated | 81.4% and 87.9% and 81.6% and 59.5% and 82.8% |
| UWB1.289 parental | 100 µM | 6 days | untreated | 35.2% |
| MDA-MB-436 PARPi-resistant | 200 µM | 6 days | untreated | -0.9% |
| RPE-1 BRCA1-/- PARPi-resistant R3 | 150 µM | 6 d |  | 62.7% |

Repeated from above (series 1):
| target | action | tested at | notes | added | IC50 [µM] |
| --- | --- | --- | --- | --- | --- |
| Anoctamin-1 (ANO1, Homo sapiens, UniProt Q5XXA6, del476-501/E650A) |  |  | membrane voltage -80 mV |  | 6.4 |
| Anoctamin-1 (ANO1, Homo sapiens, UniProt Q5XXA6, del476-501/R561A) |  |  | membrane voltage -100 mV |  | 8.1 |
| Anoctamin-1 (ANO1, Homo sapiens, UniProt Q5XXA6, del476-501/R631D) | inhibitor |  | R605D mutant at -40 mV |  | 20 |
| Anoctamin-1 (ANO1, Homo sapiens, UniProt Q5XXA6, del476-501/F646A) |  |  | membrane voltage -80 mV |  | 5.85 |
